Assay results pooled from the literature.
Lines come from different studies, so protocols differ.
Cell line: K562

COc1ccc(/C=C/C(=O)c2ccccc2)cc1OC
IC50 (cell viability): 38 µM

COc1ccc(C[C@H]2COC(=O)[C@@H]2Cc2ccc(OCCCCCCCC(=O)NO)c(OC)c2)cc1OC
IC50 (cell growth or viability, CCK-8; 48 h): 1.82 µM

CC(C)(C(=O)O)C1(O)CCCCC1
IC50 (cell growth or viability; 72 h): > 200 µM

CC(C)=CCc1c2c(c(O)c3c(=O)c(-c4ccc(O)cc4)coc13)CC(C(C)(C)O)O2 (stereo not drawn)
IC50 (cell growth or viability, MTT): 15.1 µM

CCCCn1cc(C(=O)O)c(=O)c2cc(F)c(Nc3ccc(OC)cc3)c(N)c21
IC50 (cell growth or viability, SRB; 72 h): 1.4 µg/mL

O=C(CCc1ccc(O)cc1)c1c(O)cc(O)cc1O
IC50 (NF-κB activity, inhibitor, luciferase; TNF-stimulated): 41 µM

COc1ccc(/N=N/C(=S)N2CCCCC2)cc1
IC50 (cell growth or viability, resazurin; 48 h): 25.5 µM

COc1ccc(-c2coc3c(CC=C(C)C)c(O)c(CC=C(C)C)c(O)c3c2=O)cc1O
IC50 (cell growth or viability, MTT): 29.4 µM

CCCCCCCCCCCCCCCC(=O)OCCN1CCN(c2cc(Nc3ncc(C(=O)Nc4c(C)cccc4Cl)s3)nc(C)n2)CC1
IC50 (cell growth or viability, MTT; 72 h): < 5.12e-05 µM

CCCCn1cc(C(=O)O)c(=O)c2cc(F)c(Nc3ccc(OC)cc3)c([N+](=O)[O-])c21
IC50 (cell growth or viability, SRB; 72 h): > 200 µg/mL

O=C(/C=C/c1ccc(O)c(O)c1)c1c(O)cc(O)cc1O
IC50 (NF-κB activity, inhibitor, luciferase; TNF-stimulated): > 200 µM

COc1ccc(C[C@H]2COC(=O)[C@@H]2Cc2ccc(OCCCCCCCCCC(=O)NO)c(OC)c2)cc1OC
IC50 (cell growth or viability, CCK-8; 48 h): > 5 µM

OC[C@H]1[C@@H](O)[C@@H](O)CN1CCc1ccccc1
IC50 (cell growth or viability, MTS; 72 h): 189 µM

Cc1nc(Nc2ncc(C(=O)Nc3c(C)cccc3Cl)s2)cc(N2CCN(CCOC(=O)[C@@H](N)CCC(=O)O)CC2)n1
IC50 (cell growth or viability, MTT; 72 h): < 5.12e-05 µM

COc1ccc(/C=C/C(=O)c2c(O)cc(OC)cc2OC)cc1
IC50 (NF-κB activity, inhibitor, luciferase; TNF-stimulated): > 200 µM

Cc1ccc(C(=O)C2Sc3nnc(-n4nc(C)cc4C)n3NC2c2ccc(Cl)cc2)cc1 (racemic)
IC50 (cell growth or viability, imaging; 72 h): > 100 µM

CCCCn1cc(C(=O)O)c(=O)c2cc(F)c(Nc3ccc(OC)cc3OC)c(N)c21
IC50 (cell growth or viability, SRB; 72 h): 4.01 µg/mL

O=C(/C=C/c1ccccc1)c1ccc(O)cc1
IC50 (cell viability): 16 µM

CC(C)=CCc1cc(-c2coc3cc(O)c(CC=C(C)C)c(O)c3c2=O)ccc1O
IC50 (cell growth or viability, MTT): 53.7 µM

COc1ccc(/C=C/C(=O)c2ccccc2)cc1
IC50 (NF-κB activity, inhibitor, luciferase; TNF-stimulated): 29 µM

COc1ccc(CN2C(=O)C(=O)c3cc(NC(C)=O)ccc32)cc1
IC50 (cell growth or viability, MTT; 48 h): 0.29 µM

COc1ccc(/N=N/C(=S)N2CCN(C)CC2)cc1
IC50 (cell growth or viability, resazurin; 48 h): 11 µM

C[C@H](CCC=O)[C@@H]1CC[C@]2(C)C3=C(CC[C@@]12C)[C@@]1(C)CC[C@H](O)C(C)(C)[C@@H]1CC3
IC50 (cell growth or viability, SRB): 18.8 µM

O=C(NO)c1ccc(Cn2sc3ccccc3c2=O)cc1
IC50 (cell growth or viability, ATP luminescence; 72 h): 13.1 µM

CO[C@@H]1C(=O)c2ccc(O)cc2O[C@@H]1c1ccc(O)c(O)c1 (relative stereo)
IC50 (cell growth or viability, MTT; 72 h): 47.7 µM

C(=C/c1ccccc1)/c1ccccc1
IC50 (cell growth or viability, ATP luminescence; 24 h): 53 µM

COc1ccc(C(=O)/C=C/c2ccccc2)cc1
IC50 (cell viability): 38 µM

COc1cc(C2Oc3ccc(C=C4Oc5cc(O)ccc5C4=O)cc3OC2CO)cc(OC)c1O (stereo not drawn)
IC50 (cell growth or viability, MTT; 72 h): 19 µM

Cc1nc(Nc2ncc(C(=O)Nc3c(C)cccc3Cl)s2)cc(N2CCN(C(=O)CCOCCNC(=O)CN)CC2)n1
IC50 (cell growth or viability, CCK-8): 0.021 µM

O=C(/C=C/c1ccc(O)c(O)c1)c1ccc(O)cc1O
IC50 (NF-κB activity, inhibitor, luciferase; TNF-stimulated): 38 µM

For quick reference, copied from above:
OC[C@H]1[C@@H](O)[C@@H](O)CN1CCc1ccccc1
IC50 (cell growth or viability, MTS; 72 h): 189 µM

Cc1nc(Nc2ncc(C(=O)Nc3c(C)cccc3Cl)s2)cc(N2CCN(CCOC(=O)[C@@H](N)CCC(=O)O)CC2)n1
IC50 (cell growth or viability, MTT; 72 h): < 5.12e-05 µM

COc1ccc(/C=C/C(=O)c2c(O)cc(OC)cc2OC)cc1
IC50 (NF-κB activity, inhibitor, luciferase; TNF-stimulated): > 200 µM

Cc1ccc(C(=O)C2Sc3nnc(-n4nc(C)cc4C)n3NC2c2ccc(Cl)cc2)cc1 (racemic)
IC50 (cell growth or viability, imaging; 72 h): > 100 µM

CCCCn1cc(C(=O)O)c(=O)c2cc(F)c(Nc3ccc(OC)cc3OC)c(N)c21
IC50 (cell growth or viability, SRB; 72 h): 4.01 µg/mL
